Results collected from several papers.
Every numbered part comes from another study and shows a few of its results, in no order. Several values in a cell are separate wells, animals, samples, runs or records.
UniProt P10721, sequence (whole entry, unmodified, looked up): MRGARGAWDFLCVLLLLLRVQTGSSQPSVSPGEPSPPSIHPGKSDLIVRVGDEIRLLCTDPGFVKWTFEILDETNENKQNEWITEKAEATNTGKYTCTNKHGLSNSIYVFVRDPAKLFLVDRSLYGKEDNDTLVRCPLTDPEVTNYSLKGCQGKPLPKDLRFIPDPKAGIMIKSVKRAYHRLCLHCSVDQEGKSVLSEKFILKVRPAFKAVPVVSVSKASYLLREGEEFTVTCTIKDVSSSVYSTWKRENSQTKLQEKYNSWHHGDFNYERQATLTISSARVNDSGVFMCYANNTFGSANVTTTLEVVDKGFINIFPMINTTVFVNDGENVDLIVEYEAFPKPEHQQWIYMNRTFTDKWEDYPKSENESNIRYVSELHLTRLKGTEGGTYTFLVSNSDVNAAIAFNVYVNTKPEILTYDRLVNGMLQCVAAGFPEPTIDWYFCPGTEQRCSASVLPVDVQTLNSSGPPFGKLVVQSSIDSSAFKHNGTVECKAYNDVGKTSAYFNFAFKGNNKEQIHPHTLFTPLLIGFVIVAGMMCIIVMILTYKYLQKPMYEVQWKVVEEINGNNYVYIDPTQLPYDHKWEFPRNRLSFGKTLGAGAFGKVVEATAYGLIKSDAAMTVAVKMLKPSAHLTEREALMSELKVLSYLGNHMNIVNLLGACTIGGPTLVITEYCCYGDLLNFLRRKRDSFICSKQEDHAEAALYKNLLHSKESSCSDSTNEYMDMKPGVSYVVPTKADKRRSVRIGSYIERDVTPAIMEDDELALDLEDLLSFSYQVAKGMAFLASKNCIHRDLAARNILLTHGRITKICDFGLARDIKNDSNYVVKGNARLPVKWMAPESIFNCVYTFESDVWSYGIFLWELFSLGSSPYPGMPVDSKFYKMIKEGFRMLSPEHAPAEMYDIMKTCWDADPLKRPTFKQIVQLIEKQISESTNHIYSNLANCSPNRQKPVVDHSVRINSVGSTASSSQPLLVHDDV
UniProt Q14012, sequence (whole entry, looked up): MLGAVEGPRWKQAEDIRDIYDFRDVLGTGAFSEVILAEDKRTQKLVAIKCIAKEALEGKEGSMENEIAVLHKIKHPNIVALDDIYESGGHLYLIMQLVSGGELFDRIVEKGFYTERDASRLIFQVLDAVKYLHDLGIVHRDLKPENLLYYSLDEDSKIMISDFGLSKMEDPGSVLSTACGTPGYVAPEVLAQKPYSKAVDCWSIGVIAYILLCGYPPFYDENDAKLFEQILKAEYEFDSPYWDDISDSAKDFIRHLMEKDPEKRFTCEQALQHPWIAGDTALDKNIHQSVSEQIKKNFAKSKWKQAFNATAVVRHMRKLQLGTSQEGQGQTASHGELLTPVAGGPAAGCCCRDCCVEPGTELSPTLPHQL
UniProt Q9Y2U5, sequence (whole entry, looked up): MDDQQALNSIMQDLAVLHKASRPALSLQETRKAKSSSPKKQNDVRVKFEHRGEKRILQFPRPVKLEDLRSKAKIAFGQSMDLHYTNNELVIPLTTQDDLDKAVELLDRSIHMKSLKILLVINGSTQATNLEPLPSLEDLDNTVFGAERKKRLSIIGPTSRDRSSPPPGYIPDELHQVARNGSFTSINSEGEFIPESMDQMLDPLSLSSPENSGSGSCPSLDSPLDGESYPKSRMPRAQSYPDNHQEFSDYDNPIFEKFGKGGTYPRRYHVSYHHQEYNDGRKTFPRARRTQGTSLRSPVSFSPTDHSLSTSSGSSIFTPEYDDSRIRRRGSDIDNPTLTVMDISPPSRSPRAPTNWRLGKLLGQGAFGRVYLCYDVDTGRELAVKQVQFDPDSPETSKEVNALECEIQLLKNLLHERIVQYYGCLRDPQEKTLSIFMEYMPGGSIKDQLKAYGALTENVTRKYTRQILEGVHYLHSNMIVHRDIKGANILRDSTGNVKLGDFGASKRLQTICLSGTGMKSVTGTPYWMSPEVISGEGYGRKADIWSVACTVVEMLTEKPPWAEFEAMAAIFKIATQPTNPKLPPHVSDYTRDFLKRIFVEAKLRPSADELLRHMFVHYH
UniProt Q07002, sequence (whole entry, looked up): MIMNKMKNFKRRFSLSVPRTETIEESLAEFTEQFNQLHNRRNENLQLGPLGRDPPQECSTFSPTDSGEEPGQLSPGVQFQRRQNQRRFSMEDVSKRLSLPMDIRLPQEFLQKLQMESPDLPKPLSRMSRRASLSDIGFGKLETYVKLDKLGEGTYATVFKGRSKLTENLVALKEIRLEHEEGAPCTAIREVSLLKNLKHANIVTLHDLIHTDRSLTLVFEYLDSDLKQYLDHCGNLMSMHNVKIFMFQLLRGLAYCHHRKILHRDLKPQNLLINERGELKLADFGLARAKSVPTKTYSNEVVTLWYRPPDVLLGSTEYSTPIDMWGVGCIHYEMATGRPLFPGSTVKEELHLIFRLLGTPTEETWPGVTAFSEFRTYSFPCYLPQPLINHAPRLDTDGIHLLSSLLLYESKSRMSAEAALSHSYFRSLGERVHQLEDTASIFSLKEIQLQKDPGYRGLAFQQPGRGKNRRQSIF
UniProt O75582, sequence (whole entry, looked up): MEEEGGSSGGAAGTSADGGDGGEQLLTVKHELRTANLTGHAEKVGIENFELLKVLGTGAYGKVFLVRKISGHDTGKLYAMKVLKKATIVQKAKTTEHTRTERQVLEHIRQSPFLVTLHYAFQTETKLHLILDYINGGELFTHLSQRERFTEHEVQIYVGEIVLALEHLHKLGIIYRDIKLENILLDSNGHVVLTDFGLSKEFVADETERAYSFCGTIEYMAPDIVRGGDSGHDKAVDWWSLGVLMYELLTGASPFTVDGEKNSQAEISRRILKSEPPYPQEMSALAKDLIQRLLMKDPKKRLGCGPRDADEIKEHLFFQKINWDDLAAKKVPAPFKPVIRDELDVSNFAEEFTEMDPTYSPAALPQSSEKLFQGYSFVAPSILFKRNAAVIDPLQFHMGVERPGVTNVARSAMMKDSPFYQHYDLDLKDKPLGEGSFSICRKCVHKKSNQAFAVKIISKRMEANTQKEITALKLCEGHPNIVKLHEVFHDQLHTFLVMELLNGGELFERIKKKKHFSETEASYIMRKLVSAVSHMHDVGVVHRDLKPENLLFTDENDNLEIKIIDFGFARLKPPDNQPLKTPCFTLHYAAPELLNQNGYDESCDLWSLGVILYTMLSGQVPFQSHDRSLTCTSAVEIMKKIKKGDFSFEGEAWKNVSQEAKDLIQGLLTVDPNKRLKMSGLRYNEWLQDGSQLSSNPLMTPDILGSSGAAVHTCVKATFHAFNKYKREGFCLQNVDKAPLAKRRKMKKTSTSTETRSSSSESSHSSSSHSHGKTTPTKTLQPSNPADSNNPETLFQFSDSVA
UniProt P48730, sequence (whole entry, looked up): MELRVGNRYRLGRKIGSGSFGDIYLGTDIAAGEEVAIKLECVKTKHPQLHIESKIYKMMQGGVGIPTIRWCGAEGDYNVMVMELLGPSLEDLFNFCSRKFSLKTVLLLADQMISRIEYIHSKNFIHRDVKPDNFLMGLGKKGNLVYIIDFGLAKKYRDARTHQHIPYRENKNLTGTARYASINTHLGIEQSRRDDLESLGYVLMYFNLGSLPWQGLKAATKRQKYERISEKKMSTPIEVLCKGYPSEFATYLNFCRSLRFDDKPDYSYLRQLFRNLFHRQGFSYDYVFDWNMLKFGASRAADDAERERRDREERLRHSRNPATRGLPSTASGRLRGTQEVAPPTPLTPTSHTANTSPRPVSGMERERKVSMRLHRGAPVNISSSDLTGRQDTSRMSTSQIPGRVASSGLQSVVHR
UniProt P23458, sequence (whole entry, looked up): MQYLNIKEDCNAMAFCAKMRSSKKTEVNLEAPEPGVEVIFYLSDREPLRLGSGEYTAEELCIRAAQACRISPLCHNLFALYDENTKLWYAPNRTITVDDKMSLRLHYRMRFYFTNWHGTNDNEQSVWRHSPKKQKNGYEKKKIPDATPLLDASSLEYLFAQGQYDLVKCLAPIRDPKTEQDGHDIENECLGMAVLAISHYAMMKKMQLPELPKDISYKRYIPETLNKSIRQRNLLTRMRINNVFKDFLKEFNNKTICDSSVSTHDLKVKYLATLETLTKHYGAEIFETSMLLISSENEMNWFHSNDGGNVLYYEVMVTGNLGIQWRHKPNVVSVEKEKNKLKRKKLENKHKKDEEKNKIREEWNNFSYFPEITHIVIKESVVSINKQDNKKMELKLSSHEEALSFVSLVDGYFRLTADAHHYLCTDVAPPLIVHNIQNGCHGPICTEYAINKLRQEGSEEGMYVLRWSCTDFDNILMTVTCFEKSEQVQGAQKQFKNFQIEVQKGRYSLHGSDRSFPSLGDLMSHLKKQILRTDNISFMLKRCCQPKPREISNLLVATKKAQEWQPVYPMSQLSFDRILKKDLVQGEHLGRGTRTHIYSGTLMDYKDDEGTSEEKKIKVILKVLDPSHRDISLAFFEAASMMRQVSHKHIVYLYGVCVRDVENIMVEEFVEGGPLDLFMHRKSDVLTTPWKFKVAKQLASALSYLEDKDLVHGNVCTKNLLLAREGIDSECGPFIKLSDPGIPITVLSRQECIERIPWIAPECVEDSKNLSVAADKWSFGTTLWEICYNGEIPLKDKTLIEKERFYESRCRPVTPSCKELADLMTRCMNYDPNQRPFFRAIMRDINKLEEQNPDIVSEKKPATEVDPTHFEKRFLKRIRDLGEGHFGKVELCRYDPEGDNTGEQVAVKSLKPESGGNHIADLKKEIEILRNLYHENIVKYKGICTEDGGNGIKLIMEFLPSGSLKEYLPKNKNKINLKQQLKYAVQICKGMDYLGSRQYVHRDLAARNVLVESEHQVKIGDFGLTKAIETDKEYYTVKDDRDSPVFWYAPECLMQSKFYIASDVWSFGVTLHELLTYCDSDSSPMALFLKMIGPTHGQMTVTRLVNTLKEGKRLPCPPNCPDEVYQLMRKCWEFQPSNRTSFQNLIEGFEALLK

Series 1 — SMILES: c1ccc(-c2n[nH]c3c2oc2ccccc23)cc1; observed: enzyme activity; action: inhibitor; concentration: 0.5 µM; reference: control
Vascular endothelial growth factor receptor 1 (FLT1, Homo sapiens, UniProt P17948) — remaining activity: 94.5%.
For SRSF protein kinase 1 (SRPK1, Homo sapiens, UniProt Q96SB4): remaining activity read 113%.
Mitogen-activated protein kinase kinase kinase 20 (MAP3K20, Homo sapiens, UniProt Q9NYL2) — remaining activity: 96.2%.
For Tyrosine-protein kinase Tec (TEC, Homo sapiens, UniProt P42680): remaining activity read 95.6%.
It gave 87.5% for remaining activity (Serine/threonine-protein kinase PAK 6 (PAK6, Homo sapiens, UniProt Q9NQU5)).
For Ribosomal protein S6 kinase alpha-3 (RPS6KA3, Homo sapiens, UniProt P51812): remaining activity read 109%.
It gave 97% for remaining activity (Calcium/calmodulin-dependent protein kinase kinase 1 (CAMKK1, Homo sapiens, UniProt Q8N5S9)).
Protein kinase C zeta type (PRKCZ, Homo sapiens, UniProt Q05513) — remaining activity: 87.1%.
It gave 93.1% for remaining activity (Casein kinase I isoform delta (CSNK1D, Homo sapiens, UniProt P48730)).
Ephrin type-A receptor 2 (EPHA2, Homo sapiens, UniProt P29317) — remaining activity: 105%.
The remaining activity was 95.6% (Cyclin-dependent kinase 2, with cyclin E (CDK2, Homo sapiens, UniProt P24941)).
Serine/threonine-protein kinase Sgk2 (SGK2, Homo sapiens, UniProt Q9HBY8) — remaining activity: 93%.
For Tyrosine-protein kinase JAK1 (JAK1, Homo sapiens, UniProt P23458): remaining activity read 104%.
The remaining activity was 83.8% (Protein kinase C theta type (PRKCQ, Homo sapiens, UniProt Q04759)).
Serine/threonine-protein kinase SIK2 (SIK2, Homo sapiens, UniProt Q9H0K1) — remaining activity: 98.3%.
The remaining activity was 91.8% (Casein kinase I isoform epsilon (CSNK1E, Homo sapiens, UniProt P49674)).
For Serine/threonine-protein kinase PAK 1 (PAK1, Homo sapiens, UniProt Q13153): remaining activity read 94.9%.
It gave 85.2% for remaining activity (Calcium/calmodulin-dependent protein kinase type 1 (CAMK1, Homo sapiens, UniProt Q14012)).
For Insulin-like growth factor 1 receptor (IGF1R, Homo sapiens, UniProt P08069): remaining activity read 98.1%.
The remaining activity was 72.6% (Muscle, skeletal receptor tyrosine-protein kinase (MUSK, Homo sapiens, UniProt O15146)).
The remaining activity was 87.6% (Tyrosine-protein kinase receptor TYRO3 (TYRO3, Homo sapiens, UniProt Q06418)).
For Dual specificity protein kinase CLK2 (CLK2, Homo sapiens, UniProt P49760): remaining activity read 94.8%.
It gave 84% for remaining activity (Dual specificity protein kinase CLK1 (CLK1, Homo sapiens, UniProt P49759)).

Series 2 — species: human; sample: microsomes or S9; concentration: 2 µM; time: 0.5 h
For `Cc1cc(C(=O)Nc2cnn(Cc3ccc(Cl)cc3Cl)c2)c2c(C)nn(C)c2n1`, the remaining compound was 23.5%.
For `O=C1CSC(Nc2cccc(C(F)(F)F)c2)=N1`, the remaining compound was 13.6%.
`COc1cc(=O)n(C)cc1C(=O)NCc1csc2ncnn12` gave a remaining compound of 70.6%.
For `Cc1ccc(Cl)c(OCC(O)Cn2cnc3cc(C)c(C)cc32)c1` (centres unmarked), the remaining compound was 6.47%.
`COCCN(C)C(=O)C1(C)CN(S(C)(=O)=O)CCO1` (centres unmarked) has a remaining compound of 91.8%.
The remaining compound of `COc1ccc(C(=O)C2=CN(c3ccc(N(C)C)cc3)c3ccccc3S2(=O)=O)cc1OC` is reported as over 100%.
`Cc1cc(C)c2c(n1)oc1c(N3CCN(C(=O)c4ccco4)CC3)ncnc12` has a remaining compound of 100%.
With `CC(C)(C)C(=O)c1sc2c(c1N)c(=O)[nH]c(=O)n2C1CCCCC1` the remaining compound was over 100%.
For `O=C(C1CC(=O)N(c2nc[nH]n2)C1)N1CCC(c2c[nH]c3ccccc23)(c2c[nH]c3ccccc23)CC1` (centres unmarked), the remaining compound was 6.95%.
For `CCc1cnc(N2CCN(C)C(C(=O)O)C2)nc1` (centres unmarked), the remaining compound was over 99%.
`Oc1c(-c2ccccc2Br)c(-n2cncn2)nc2ccccc12` has a remaining compound of over 99.9%.
For `CC(C)(C)OC(=O)N[C@@H](CC(=O)N1CCCN(C(=O)CN2CCC(c3ccccc3)CC2)CC1)Cc1cc(F)c(F)cc1F`, the remaining compound was 0.225%.

Series 3 — cell line: mouse MPNST tumor cells; technique: high-content nuclear imaging; item: cell number; concentration: 10 µM; time: 12 h; notes: mean of 2 replicates; reference: plate mean; reading: higher = more cells
The nuclei count of `CCN(CC)CCOC(=O)C(Cc1cccc2ccccc12)CC1CCCO1` (centres unmarked) is reported as 1.6 z-score.
With `O=C(Nc1cccnc1)c1cc(-c2ccnc(F)c2)ccc1OCc1ccccc1` the nuclei count was 0.241 z-score.
The nuclei count of `O=C(Nc1ccc(C(O)(C(F)(F)F)C(F)(F)F)cc1)c1ccc(C(F)(F)F)cc1` is reported as -1.83 z-score.
`NC[C@@H]1O[C@H](O[C@H]2[C@@H](O)[C@H](O[C@@H]3[C@@H](O)[C@H](N)C[C@H](N)[C@H]3O[C@H]3O[C@H](CO)[C@@H](O)[C@H](O)[C@H]3N)O[C@@H]2CO)[C@H](N)[C@@H](O)[C@@H]1O` gave a nuclei count of -0.806 z-score and 0.308 z-score.
`COC(=O)N/N=C/c1c[n+]([O-])c2ccccc2[n+]1[O-]` gave a nuclei count of 1.72 z-score.
The nuclei count of `CSc1ccc2c(c1)C(N1CCN(C)CC1)Cc1ccccc1S2` (centres unmarked) is reported as -5.74 z-score.
With `CCC(c1ccc(F)c(F)c1)n1c(C(=O)OC)c(-c2ccno2)[nH]c1=S` (centres unmarked) the nuclei count was 2.33 z-score.
With `Cc1ccc(OCCSc2ncccn2)c(Br)c1` the nuclei count was 0.74 z-score.
`CCCc1nc(C)c2c(=O)nc(-c3cc(S(=O)(=O)N4CCN(CC)CC4)ccc3OCC)[nH]n12` has a nuclei count of -0.153 z-score.
`CC[C@H]1OC(=O)C[C@@H](O)[C@H](C)[C@@H](O[C@@H]2O[C@H](C)[C@@H](O[C@H]3C[C@@](C)(O)[C@@H](O)[C@H](C)O3)[C@H](N(C)C)[C@H]2O)[C@@H](CC=O)C[C@@H](C)C(=O)/C=C/C(C)=C/[C@@H]1CO[C@@H]1O[C@H](C)[C@@H](O)[C@@H](OC)[C@H]1OC` has a nuclei count of -0.161 z-score.

Series 4 — observed: cell-free assay; technique: competition with immobilised ligand; concentration: 1 µM
SMILES: C[C@@H](c1cccc(C#N)c1)n1cc(Cl)cc(C(N)=O)c1=N
Epidermal growth factor receptor (EGFR, Homo sapiens, UniProt P00533, A750P/del747-749) — remaining binding: 88%.
Serine/threonine-protein kinase TAO3 (TAOK3, Homo sapiens, UniProt Q9H2K8) — remaining binding: 75%.
For Discoidin domain-containing receptor 2 (DDR2, Homo sapiens, UniProt Q16832): remaining binding read 88%.
The remaining binding was 85% (Tyrosine-protein kinase ABL1, non-phosphorylated (ABL1, Homo sapiens, UniProt P00519, T315I)).
Serine/threonine-protein kinase N2 (PKN2, Homo sapiens, UniProt Q16513) — remaining binding: 100%.
It gave 93% for remaining binding (Ribosomal protein S6 kinase alpha-5, N-terminal kinase domain (RPS6KA5, Homo sapiens, UniProt O75582)).
It gave 100% for remaining binding (Cyclin-dependent kinase 18 (CDK18, Homo sapiens, UniProt Q07002)).
For Mast/stem cell growth factor receptor Kit (KIT, Homo sapiens, UniProt P10721, V559D/V654A): remaining binding read 99%.
It gave 82% for remaining binding (Ribosomal protein S6 kinase alpha-6, N-terminal kinase domain (RPS6KA6, Homo sapiens, UniProt Q9UK32)).
For Cyclin-dependent kinase 7 (CDK7, Homo sapiens, UniProt P50613): remaining binding read 81%.
It gave 93% for remaining binding (Epidermal growth factor receptor (EGFR, Homo sapiens, UniProt P00533, T790M)).
For Epidermal growth factor receptor (EGFR, Homo sapiens, UniProt P00533, L861Q): remaining binding read 100%.
It gave 100% for remaining binding (Mitogen-activated protein kinase kinase kinase 2 (MAP3K2, Homo sapiens, UniProt Q9Y2U5)).
It gave 98% for remaining binding (Myosin light chain kinase (MYLK3, Homo sapiens, UniProt Q32MK0)).

A few entries again (series 3):
The nuclei count of `CSc1ccc2c(c1)C(N1CCN(C)CC1)Cc1ccccc1S2` (centres unmarked) is reported as -5.74 z-score.
With `CCC(c1ccc(F)c(F)c1)n1c(C(=O)OC)c(-c2ccno2)[nH]c1=S` (centres unmarked) the nuclei count was 2.33 z-score.
With `Cc1ccc(OCCSc2ncccn2)c(Br)c1` the nuclei count was 0.74 z-score.
`CCCc1nc(C)c2c(=O)nc(-c3cc(S(=O)(=O)N4CCN(CC)CC4)ccc3OCC)[nH]n12` has a nuclei count of -0.153 z-score.
